Results pooled from the literature.
Each line is one published result; not all experiments were run side by side. ± marks the error that the study gave.
AKT3: RAC-gamma serine/threonine-protein kinase (AKT3, Homo sapiens, UniProt Q9Y243)
Sequence of UniProt Q9Y243 (whole entry, looked up): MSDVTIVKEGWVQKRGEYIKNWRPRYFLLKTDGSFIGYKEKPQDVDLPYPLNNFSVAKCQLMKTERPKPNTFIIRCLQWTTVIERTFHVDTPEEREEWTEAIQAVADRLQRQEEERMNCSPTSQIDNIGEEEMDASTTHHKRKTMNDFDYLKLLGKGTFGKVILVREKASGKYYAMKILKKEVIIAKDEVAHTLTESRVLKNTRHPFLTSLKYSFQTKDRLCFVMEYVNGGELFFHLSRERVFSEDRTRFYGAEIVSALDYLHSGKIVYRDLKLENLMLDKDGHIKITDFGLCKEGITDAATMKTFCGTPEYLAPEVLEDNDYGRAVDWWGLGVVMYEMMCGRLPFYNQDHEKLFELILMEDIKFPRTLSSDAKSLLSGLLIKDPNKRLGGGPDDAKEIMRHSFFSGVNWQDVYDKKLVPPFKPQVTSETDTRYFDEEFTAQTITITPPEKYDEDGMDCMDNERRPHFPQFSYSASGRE
FLT4: Vascular endothelial growth factor receptor 3 (FLT4, Homo sapiens, UniProt P35916)
Sequence of UniProt P35916 (whole entry, looked up): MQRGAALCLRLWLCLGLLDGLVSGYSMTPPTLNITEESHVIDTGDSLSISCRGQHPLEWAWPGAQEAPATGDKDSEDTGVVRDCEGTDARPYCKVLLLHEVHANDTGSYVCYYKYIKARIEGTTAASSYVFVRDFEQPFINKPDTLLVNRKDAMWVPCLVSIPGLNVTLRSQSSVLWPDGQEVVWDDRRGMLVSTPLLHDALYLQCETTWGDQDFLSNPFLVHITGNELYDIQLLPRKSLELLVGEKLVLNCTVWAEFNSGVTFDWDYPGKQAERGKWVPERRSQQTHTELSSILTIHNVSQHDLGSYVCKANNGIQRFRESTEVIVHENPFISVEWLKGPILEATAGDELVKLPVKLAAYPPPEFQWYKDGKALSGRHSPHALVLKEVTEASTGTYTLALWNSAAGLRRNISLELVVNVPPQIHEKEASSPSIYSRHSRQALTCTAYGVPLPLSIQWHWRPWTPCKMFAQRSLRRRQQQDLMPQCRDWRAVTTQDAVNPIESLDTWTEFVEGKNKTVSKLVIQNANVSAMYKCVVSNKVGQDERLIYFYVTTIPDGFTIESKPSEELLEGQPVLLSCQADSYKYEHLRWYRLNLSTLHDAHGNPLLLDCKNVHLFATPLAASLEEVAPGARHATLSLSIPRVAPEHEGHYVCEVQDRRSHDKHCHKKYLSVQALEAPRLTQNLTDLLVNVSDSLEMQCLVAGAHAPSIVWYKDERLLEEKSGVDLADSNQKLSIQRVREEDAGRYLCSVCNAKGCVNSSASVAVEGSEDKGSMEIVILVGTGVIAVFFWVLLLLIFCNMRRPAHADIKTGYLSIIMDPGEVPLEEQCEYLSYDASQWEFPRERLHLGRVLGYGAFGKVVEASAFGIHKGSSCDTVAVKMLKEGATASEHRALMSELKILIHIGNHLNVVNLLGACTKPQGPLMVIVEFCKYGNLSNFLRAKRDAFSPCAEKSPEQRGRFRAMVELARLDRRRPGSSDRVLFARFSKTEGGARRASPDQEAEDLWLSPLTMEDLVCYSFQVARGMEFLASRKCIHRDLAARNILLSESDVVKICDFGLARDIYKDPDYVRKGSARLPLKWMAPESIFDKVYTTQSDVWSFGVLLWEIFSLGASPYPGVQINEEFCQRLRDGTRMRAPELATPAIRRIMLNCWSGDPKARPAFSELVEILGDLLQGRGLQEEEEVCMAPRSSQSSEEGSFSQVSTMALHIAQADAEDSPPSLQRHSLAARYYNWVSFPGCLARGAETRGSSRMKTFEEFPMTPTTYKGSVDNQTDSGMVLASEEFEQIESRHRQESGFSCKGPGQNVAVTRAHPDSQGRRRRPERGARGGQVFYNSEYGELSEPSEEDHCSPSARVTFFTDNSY
Sequence of UniProt P05164 (whole entry, looked up): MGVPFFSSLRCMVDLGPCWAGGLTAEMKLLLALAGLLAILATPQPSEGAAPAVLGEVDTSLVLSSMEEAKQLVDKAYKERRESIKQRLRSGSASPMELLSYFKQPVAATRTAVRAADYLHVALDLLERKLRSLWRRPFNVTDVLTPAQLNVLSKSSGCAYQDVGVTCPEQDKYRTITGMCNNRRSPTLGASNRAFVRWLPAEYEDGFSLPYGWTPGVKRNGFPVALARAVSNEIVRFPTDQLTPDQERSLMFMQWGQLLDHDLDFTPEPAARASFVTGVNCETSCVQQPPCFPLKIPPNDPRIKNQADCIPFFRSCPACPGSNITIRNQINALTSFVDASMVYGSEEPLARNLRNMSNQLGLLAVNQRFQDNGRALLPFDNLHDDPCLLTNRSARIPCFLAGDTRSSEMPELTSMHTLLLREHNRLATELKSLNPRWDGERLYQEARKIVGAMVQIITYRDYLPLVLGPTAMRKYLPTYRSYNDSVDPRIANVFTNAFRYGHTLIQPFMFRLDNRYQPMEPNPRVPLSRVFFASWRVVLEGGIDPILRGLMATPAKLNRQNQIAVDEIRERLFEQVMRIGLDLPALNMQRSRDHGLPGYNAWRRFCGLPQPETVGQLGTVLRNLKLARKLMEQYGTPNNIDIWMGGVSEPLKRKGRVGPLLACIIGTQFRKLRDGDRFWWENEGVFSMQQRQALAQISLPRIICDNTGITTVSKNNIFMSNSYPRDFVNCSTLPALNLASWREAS
Sequence of UniProt Q13523 (whole entry, looked up): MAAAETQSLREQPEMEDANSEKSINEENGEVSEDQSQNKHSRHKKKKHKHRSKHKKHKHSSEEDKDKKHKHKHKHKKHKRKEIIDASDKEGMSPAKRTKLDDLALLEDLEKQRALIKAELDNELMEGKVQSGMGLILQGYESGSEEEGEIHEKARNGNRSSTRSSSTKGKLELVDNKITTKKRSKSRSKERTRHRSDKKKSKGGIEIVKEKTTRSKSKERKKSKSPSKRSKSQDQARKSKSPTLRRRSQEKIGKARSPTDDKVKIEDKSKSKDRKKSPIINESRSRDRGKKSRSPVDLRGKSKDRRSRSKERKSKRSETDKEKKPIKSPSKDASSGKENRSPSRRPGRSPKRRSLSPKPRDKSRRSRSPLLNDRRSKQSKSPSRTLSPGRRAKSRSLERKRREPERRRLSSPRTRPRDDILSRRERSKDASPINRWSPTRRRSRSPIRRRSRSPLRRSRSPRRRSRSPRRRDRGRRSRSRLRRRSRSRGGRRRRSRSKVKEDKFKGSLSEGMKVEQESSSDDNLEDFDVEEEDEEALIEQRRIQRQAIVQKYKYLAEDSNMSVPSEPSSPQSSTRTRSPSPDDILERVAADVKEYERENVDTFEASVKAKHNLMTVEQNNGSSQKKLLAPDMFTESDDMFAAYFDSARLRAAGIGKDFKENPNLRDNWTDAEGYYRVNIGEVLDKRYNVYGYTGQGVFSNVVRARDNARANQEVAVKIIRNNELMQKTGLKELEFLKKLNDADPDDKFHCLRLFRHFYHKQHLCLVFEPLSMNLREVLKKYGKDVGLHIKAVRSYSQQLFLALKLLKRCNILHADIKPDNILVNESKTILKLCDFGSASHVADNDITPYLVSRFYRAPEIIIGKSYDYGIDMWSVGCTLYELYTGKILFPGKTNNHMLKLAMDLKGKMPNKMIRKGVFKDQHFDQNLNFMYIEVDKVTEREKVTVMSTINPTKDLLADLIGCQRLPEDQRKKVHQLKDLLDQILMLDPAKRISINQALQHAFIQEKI
Sequence of UniProt P49620 (whole entry, looked up): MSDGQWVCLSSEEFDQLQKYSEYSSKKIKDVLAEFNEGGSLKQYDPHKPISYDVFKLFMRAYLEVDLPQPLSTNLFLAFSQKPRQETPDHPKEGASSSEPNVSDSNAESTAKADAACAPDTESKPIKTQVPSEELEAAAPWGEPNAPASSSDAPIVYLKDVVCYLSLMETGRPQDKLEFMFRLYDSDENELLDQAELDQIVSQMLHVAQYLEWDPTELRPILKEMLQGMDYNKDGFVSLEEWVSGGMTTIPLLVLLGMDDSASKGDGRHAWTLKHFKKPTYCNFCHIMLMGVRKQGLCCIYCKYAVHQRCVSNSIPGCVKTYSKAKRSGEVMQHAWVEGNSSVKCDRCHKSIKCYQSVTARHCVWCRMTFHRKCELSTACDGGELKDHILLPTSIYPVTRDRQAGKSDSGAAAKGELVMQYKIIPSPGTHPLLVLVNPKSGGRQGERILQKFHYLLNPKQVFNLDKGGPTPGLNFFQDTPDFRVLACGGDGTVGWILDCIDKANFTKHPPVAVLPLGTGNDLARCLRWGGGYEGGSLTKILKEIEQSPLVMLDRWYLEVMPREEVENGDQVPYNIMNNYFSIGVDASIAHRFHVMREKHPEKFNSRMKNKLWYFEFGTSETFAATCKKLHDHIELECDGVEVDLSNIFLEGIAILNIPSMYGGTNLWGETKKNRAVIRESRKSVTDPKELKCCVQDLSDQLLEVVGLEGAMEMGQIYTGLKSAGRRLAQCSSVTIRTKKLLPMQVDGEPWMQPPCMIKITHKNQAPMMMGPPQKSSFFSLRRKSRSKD
Sequence of UniProt P46154 (whole entry, looked up): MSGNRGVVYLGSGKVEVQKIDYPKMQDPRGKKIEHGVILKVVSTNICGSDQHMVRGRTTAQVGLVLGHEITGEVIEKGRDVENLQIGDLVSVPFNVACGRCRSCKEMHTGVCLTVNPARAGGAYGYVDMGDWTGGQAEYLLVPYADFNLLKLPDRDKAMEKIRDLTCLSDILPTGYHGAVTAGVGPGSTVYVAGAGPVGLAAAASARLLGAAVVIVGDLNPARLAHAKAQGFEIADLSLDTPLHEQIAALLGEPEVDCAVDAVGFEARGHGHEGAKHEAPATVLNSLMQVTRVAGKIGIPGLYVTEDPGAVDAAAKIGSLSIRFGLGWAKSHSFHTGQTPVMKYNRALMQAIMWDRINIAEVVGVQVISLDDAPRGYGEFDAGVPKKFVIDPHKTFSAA

The remaining activity of `C/C(=N/Nc1ccc([N+](=O)[O-])cc1[N+](=O)[O-])c1ccccc1` is reported as > 80% (fdhA (Pseudomonas putida, UniProt P46154); concentration not given, without demethylase).
The remaining activity of `CC(C)OCCn1c(=S)[nH]c(=O)c2[nH]ccc21` is reported as 57.4% (Myeloperoxidase (MPO, Homo sapiens, UniProt P05164); LDL lipid peroxidation, inhibitor, cholesteryl ester hydroperoxide; 0.3704 µM).
`COc1cc(-c2cncc3c2CN(C)Cc2cc(N4CCNCC4)ccc2-3)cc(OC)c1OC` gave a remaining activity of 103% (AKT3; kinase activity; 1 µM, human enzyme, with: ATP 10 µM; baseline: DMSO control).
For `COc1cc(Nc2ncc3c(n2)-c2ccc(Cl)cc2C(c2c(F)cccc2OC)=NC3)ccc1C(=O)O`, the remaining activity was 102% (PRKCN; kinase activity; 1 µM).
`C[C@@H](Oc1ccc(S(C)(=O)=O)cc1C(=O)N1C[C@@H]2C[C@]2(c2cc(C(F)(F)F)on2)C1)C(F)(F)F` has a remaining activity of 87% (SLC6A9 (Homo sapiens, UniProt P48067); glycine uptake, inhibitor, [3H]glycine uptake; 0.001 µM, log concentration 1, with: [3H]glycine, 3.5 mg/mL methyl-β-cyclodextrin; baseline: no inhibitor).
`C=CC(=O)N1CCC([C@@H]2CCNc3c(C(N)=O)c(-c4ccc(Oc5ccccc5)cc4)nn32)CC1` gave a remaining activity of 100.6 ± 0.5% (MAP3K20 (Homo sapiens, UniProt Q9NYL2); kinase activity, inhibitor, HotSpot radiometric; 100 nM, with: ATP 10 µM).
For `c1cnc2ccc(Nc3nc(NC4CC4)c4nc[nH]c4n3)cc2c1`, the remaining activity was 91% (MST1R (Homo sapiens, UniProt Q04912); kinase activity, inhibitor, SelectScreen kinase profiling; 1 µM; baseline: control).
For `NC/C(=C\F)COc1cccc(Cn2c(=S)[nH]c(=O)c3[nH]cnc32)c1`, the remaining activity was 8.81% (Peroxidasin homolog (PXDN, Homo sapiens, UniProt Q92626); Amplex UltraRed; 60 µM, mean of replicates; baseline: control).
For `Cc1cccc(C)c1C(=O)OCC(=O)[C@H](CCCCN)NC(=O)[C@H](CCCNC(=N)N)NC(=O)OCc1ccccc1`, the remaining activity was 91% (Pro-cathepsin H (Ctsh, Mus musculus, UniProt P49935); inhibitor; 0.01 µM, room temperature, with: AMC substrate).
`NC(=O)c1ncn([C@@H]2O[C@H](CO[P@@](=O)(O)O[P@](=O)(O)OP(=O)(O)O)[C@@H](O)[C@H]2O)n1` gave a remaining activity of 98.8% (Non-structural polyprotein pORF1, helicase domain (Hepatitis E virus genotype 1, UniProt P33424); ATPase activity, inhibitor, colorimetric; 56 µM; baseline: untreated).
The remaining activity of `O=C(c1ccc(F)cc1)C1CCN(CCn2c(=O)[nH]c3ccccc3c2=O)CC1` is reported as 0.91 (Diacylglycerol kinase gamma (Dgkg, Rattus norvegicus, UniProt P49620); enzyme activity, DAG kinase; HEK293T lysate overexpressing; 50 µM, unit not given, with: [γ32P]-ATP; baseline: DMSO vehicle).
For `O=C(NC1CCC1)c1ccc2nc(-c3cccc(NS(=O)(=O)NCCN4CCCCC4)c3)cn2c1`, the remaining activity was 100% (FLT4; enzyme activity; 10 µM).
With `C=CC(=O)N1CCC[C@@H](n2nc(-c3ccc(Oc4ccccc4)cc3)c3c(N)ncnc32)C1` the remaining activity was 43.3% (TYK2 (Homo sapiens, UniProt P29597); 0.1 µM).
The remaining activity of `O=C1NC(=O)/C(=C/c2ccc(-c3ccc(F)cc3O)o2)S1` is reported as 24% (MINK1 (Homo sapiens, UniProt Q8N4C8); enzyme activity; 10 µM).
With `COc1cc(N2CCN(C)CC2)ccc1Nc1nc(N)n(C(=O)NCc2c(Cl)cccc2Cl)n1` the remaining activity was 2.2% (PRPF4B (Homo sapiens, UniProt Q13523); enzyme activity; 10 µM; baseline: control).
`CNc1ncc2c(/C=C/C(=O)N3CCC(OC)CC3)nn(Cc3cccc(C(F)(F)F)c3)c2n1` gave a remaining activity of 96% (AKT3; kinase activity, inhibitor; 1 µM; baseline: untreated control).
For `O=C(O)c1ccc(Nc2ncc3c(n2)-c2ccc(Cl)cc2C(c2c(F)cccc2F)=NC3)cc1`, the remaining activity was 86% (bovine PKA; inhibitor, biochemical kinase; 1 µM).
The remaining activity of `Cc1cc(Nc2cc(N3CCN(C)CC3)nc(Sc3ccc(NC(=O)C4CC4)cc3)n2)[nH]n1` is reported as 86% (FLT4; kinase activity, KinaseProfiler; 0.03 µM, species human; baseline: control).
With `COc1cc(F)ccc1-c1ncnc(Nc2cccc(C[S@](C)(=N)=O)c2)n1` the remaining activity was 93% (MAPKAPK5 (Homo sapiens, UniProt Q8IW41); kinase activity; 10 µM, with: 10 µM ATP).

For quick reference, copied from above:
The remaining activity of `CC(C)OCCn1c(=S)[nH]c(=O)c2[nH]ccc21` is reported as 57.4% (Myeloperoxidase (MPO, Homo sapiens, UniProt P05164); LDL lipid peroxidation, inhibitor, cholesteryl ester hydroperoxide; 0.3704 µM).
